Experimental data pooled from the literature.
Parts stem from different laboratories: compare values within a part only.

Series 1
Target: Interferon regulatory factor 7, full length, phosphomimetic (IRF7, Homo sapiens, UniProt Q92985, residues 1-503, S471D/S472D/S475D/S476D/S477D/S483D/S484D/S487D)
UniProt Q92985, sequence (whole entry, unmodified, looked up): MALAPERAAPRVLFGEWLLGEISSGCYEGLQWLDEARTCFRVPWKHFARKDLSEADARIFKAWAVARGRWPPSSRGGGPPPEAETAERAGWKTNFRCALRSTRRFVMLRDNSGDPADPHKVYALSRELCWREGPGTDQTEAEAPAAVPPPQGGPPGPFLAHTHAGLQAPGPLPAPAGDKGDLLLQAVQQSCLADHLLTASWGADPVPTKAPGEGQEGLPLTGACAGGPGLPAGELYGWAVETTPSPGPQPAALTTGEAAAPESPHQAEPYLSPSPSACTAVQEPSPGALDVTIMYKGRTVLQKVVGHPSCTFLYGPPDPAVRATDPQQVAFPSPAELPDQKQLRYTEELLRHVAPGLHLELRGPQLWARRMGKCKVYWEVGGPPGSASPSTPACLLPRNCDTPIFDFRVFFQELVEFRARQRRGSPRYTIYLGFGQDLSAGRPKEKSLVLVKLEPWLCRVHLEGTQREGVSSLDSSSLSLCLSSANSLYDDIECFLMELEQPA
Technique: protein-binding microarray
Molecule type: double-stranded DNA, one strand shown
Medium: in vitro
Tested at: 2200 nM top
Notes: 60-bp whole probe
With: salmon DNA 0.4 mg/ml
Reference: random background probes
Direction: higher = stronger binding
Shared flanks, not repeated: GCCTAGCAC … GTCTTGATTCGCTTGACGCTGCTG
Sequence | fitted relative affinity
CTGGTTTTTACTTTCTGAATGTGCTAG | 4.5 z-score
TCATGTTGCAGACTCGAACTGTGCTAG | 1.02 z-score
TCATTTTTGCAAGCTAAAACTGTGCTA | 0.685 z-score
TCAGCATACCATATCAGACTGTGCTAG | 0.568 z-score
TTAGGTGTCGGTTCCGGTTAGTGCTAG | 1.1 z-score
GACGGTTTCTTTATCCTGACGTGCTAG | 2.26 z-score
AAACTAGTGTTTTTCTCCTAGTGCTAG | 0.544 z-score
TCATGTCTCAGAGTCCTACTGTGCTAG | 1.09 z-score
TTAGGTACCCTTATCCTTTAGTGCTAG | 0.792 z-score
GACGGTTTCGACACCGGGGACGTGCTA | 2.23 z-score
TTAGATTTCACTTTCGATTAGTGCTAG | 10.9 z-score
GACGGTTTCGGGTTTCAGGACGTGCTA | 8.55 z-score
TCAGCTTGGTGTCTCTGACTGTGCTAG | 0.461 z-score
TTAGGGTTCGGGTTTCGGTTAGTGCTA | 4.21 z-score
TCAGATATAAATGTAACACTGTGCTAG | -0.182 z-score
GACGGTACCGGTCTCGGGACGTGCTAG | -0.453 z-score
TTAGATCTCAGTATTGATTAGTGCTAG | 0.031 z-score

Series 2
Target: RNA binding protein fox-1 homolog 2, RRM domain, GST-SBP tag (RBFOX2, Homo sapiens, UniProt O43251-10, residues 100-194)
Technique: RNA Bind-n-Seq
Molecule type: RNA
Medium: in vitro
Tested at: 365 nM
Notes: natural RNA segment, single round, ends assumed
Reference: no-protein control
Direction: higher = stronger binding
Construct (chain): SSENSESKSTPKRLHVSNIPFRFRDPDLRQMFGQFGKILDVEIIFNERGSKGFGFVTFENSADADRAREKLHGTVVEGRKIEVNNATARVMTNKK
Sequence | RBNS enrichment (R)
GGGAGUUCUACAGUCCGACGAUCCUUUCAAAAUUCUUAAAUCUUCUGUUCCUCCUUUUUCCAAGGGAAGAGGGCAAAAAGUGGCCUGGGCUCUGUUGGUGUGCGUGUUCCGUGGCGGAGAGAAGAAAAUGGGAUGGAAUUCUCGGGUGCCAA | 0.811
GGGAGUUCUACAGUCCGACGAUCGAGACUAAAGGAUGUUGAAGGCUACACAUUCAACCUUUUGUUAGGUGUUUCCUUUAAGCUACUCAGCUGUACCUUUUAAAUUAGUUCUUUUUCAACCAGUAUAUCACUAAUGGAAUUCUCGGGUGCCAA | 0.396
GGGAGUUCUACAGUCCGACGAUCUCAGCUGACAUCAUGAAUAGAAUGAGGUCUGCUUCAGAACCUUUUGUUGUCAACUGUCACUGUUUCUUCCAAAAGUCACAAUUUGUACAAGAACCUUUGCUUUCCUUAGAUGGAAUUCUCGGGUGCCAA | 0.342
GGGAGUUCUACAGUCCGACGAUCUUUGACCACUGUGAUCCAGAAGAGAGGUGCACUACGUGGGAAGUGCUGAUUCCACAGCAUGCAGCCUGGUAGGGGAAGGAAAAUAAAAGGGUGUGAAGAAGGAAUAGUUUUGGAAUUCUCGGGUGCCAA | 2.7
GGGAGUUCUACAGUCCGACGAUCCCGAAUCAGAAUCCCAUCUCACCAGGGCGAAAUUUUAAUUUAAAAACUUAAAAAGAGACUUUUCUAACUUCCCUGGUUUGCGGUGCUUUUAUUUCCGUUGGUGGGAAAAGUGGAAUUCUCGGGUGCCAA | 0.485
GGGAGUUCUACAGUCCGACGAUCAGGGAACUUUGAUCUUCCUAAGAAUUAAAGUUGCCAAAUUAUUCUGAUUGGUCUUUAAUCUCCUUUAAGUCUUUGAUAUAUAUUACUUGUUAUAAAUGGAACGCAUUAGUUGGAAUUCUCGGGUGCCAA | 3.42
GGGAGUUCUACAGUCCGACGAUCCCUCCAACCCUUCUUGCCUACUCCUCACUGCCAGCUGGGACCUAGGCUCAGUCCUGUGUGGUGCCCAUGAUCCUUCUGGUGGGGGAAGAGUUUAAGUUAUAGGGCAUUUGUGGAAUUCUCGGGUGCCAA | 0.489
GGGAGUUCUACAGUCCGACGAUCAGGCCUCACCCCAGGGACAGGGCCCUGGAGCUCAGGGUCCUUGUUUCUGCCCUGCCAGCUGCAGCCUGGUUGGCAGCAUCUGCUCCAUCGGGGCAGGGGGUAUGCAGAGCUGGAAUUCUCGGGUGCCAA | 0.274
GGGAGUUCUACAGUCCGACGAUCUCCAAGUCCAGAACCAUCUCUGUUAUAGAGUGUGCCAAAGCCUGAGCUAAGCAGUGUAUUUUAAUCGAAGAAGAAACCAAAAUCUGUUCUAAGAACUGGGGUUCUAUACCUGGAAUUCUCGGGUGCCAA | 0.387
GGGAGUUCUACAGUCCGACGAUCGCAUGAGCCUGUGUUCCCAGCUGCUUAGGAGGCUGAAGCAGGAGGAUUGAUUGAGCCUGCGAGGCCAAGGCUGCAGCAGGCUGUGAUUGCACCACUGCACUUCAGCUUGGUGGAAUUCUCGGGUGCCAA | 4.73
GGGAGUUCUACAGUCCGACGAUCAAAACAAAUGAUUAGUUAAAAAAAGAAAAUAUACAUUUGUUGGUAACUAAUGUUAUUUUUUAAAACCUGGACCUUUUCUGGAAGGGCAGCAUAUAAAAACAUCAGUCCCGUGGAAUUCUCGGGUGCCAA | 0.546
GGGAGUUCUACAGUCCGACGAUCUCUGCCGAGUGAGGGCGGCUCCCCAGGGACCAGAGGAAGCCGGGAAAAGAGGCCCAUGGCGUCGAGCCCAGCCCUGACCGCCAGCUGGCUGAGGUCGUGCCCUGCUGGGCUGGAAUUCUCGGGUGCCAA | 0.556

Series 3
Target: Ras GTPase-activating protein-binding protein 1, full length (G3BP1, Homo sapiens, UniProt Q13283)
UniProt Q13283, sequence (whole entry, looked up): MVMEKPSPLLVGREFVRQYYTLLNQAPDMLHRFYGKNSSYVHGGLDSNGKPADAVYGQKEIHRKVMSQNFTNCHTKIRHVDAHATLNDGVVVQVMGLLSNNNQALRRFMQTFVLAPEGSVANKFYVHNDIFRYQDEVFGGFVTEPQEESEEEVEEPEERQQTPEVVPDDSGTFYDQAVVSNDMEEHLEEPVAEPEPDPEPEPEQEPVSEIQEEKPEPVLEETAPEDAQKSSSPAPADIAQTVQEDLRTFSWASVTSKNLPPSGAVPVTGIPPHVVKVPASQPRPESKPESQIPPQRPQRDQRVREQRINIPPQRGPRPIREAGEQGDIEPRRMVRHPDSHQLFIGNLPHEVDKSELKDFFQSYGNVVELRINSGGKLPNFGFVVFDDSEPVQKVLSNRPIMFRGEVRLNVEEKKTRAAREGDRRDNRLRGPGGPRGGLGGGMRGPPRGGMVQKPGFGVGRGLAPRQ
Technique: RNA Bind-n-Seq
Molecule type: RNA
Medium: in vitro
Tested at: 200 nM
Notes: whole 134-nt RNA, ends assumed
With: 150 mM LiCl
Reference: input library
Direction: higher = stronger binding
Library: 7-deaza-guanosine replaces G
Sequence | log2 enrichment
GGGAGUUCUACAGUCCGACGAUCAAGUCCUGUGCUACACAUCGUAUGUACCGAAUCGGAAAGGUUUUUGGAAAAAAAGGAAAGUAUUAUGUUACGCCGUUCGGAUCUGCACUUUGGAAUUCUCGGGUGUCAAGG | -1.22
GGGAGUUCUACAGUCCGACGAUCUCCUGUGCUACACAUCGUAUGUACCGAAUCGGGGUUUGGGGUUUGGGGAAAAAAAGGGGAAAGUAUUAUGUUACGCCGUUCGGAUCUGCAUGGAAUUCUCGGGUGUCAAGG | -0.577
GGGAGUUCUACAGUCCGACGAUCUUUCAAAGCCAAAGGGCCUUGUGACGCCCCUCUUGCCCACCUCCCUCCACACCGUGUCCUCCCCUAUAUGACAAUCAAUGUGACCUCUCUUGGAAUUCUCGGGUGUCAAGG | -0.226
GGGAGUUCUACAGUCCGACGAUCUGGGAGGUGGAUUUUGUUUAUUUUUUUAGCUCAUUUCCAGGGGUGGGAAAUUUUUUUUAAUAUGUGUCAUGAAUAAAGUUGUUUUUGAAAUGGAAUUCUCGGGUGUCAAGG | -0.121
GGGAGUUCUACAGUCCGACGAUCCCUCAAGUCCUGUGCUACACAUCGUAUGUACCGAAUCGGUGGAGGAAAAAGGAAAGUAUUAUGUUACGCCGUUCGGAUCUGCACUUCCAGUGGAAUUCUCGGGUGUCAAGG | 0.396
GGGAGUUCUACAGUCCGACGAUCUCCUGUGCUACACAUCGUAUGUACCGAAUCAAACCCCCAAAUUUUUUUAAACCCCCAAAAAAGUAUUAUGUUACGCCGUUCGGAUCUGCAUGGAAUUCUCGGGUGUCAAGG | 1.52
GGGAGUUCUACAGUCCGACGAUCCCUGUGCUACACAUCGUAUGUACCGAAUCGGGGAAAAAGGGGUUUUUUUGGGGAAAGGGGAAAGUAUUAUGUUACGCCGUUCGGAUCUGCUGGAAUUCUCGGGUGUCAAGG | -0.449
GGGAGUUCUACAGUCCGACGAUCAAGUCCUGUGCUACACAUCGUAUGUACCGAAUCGGGGAAAGGGGUUUGGGGAGGGGAAAGUAUUAUGUUACGCCGUUCGGAUCUGCACUUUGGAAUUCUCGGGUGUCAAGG | -0.255
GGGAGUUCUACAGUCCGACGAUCCUCAAGUCCUGUGCUACACAUCGUAUGUACCGAAUCGGUUGGGUUGGUUGGGGAAAGUAUUAUGUUACGCCGUUCGGAUCUGCACUUCCAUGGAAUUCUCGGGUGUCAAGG | 0.248
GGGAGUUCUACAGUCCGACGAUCUAACUUUAGAGGAGGAUCUGAUGGAUAUGGCAGUGGACCUGGAUUUGGGGAUGGCUAUAAUGGGUAUGGAGGAGGACCUGGAGGUGGCAAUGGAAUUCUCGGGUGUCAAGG | -0.269
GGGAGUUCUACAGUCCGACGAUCGUCCUGUGCUACACAUCGUAUGUACCGAAUCGGGAAAAAAAGGGAGGGUUUUUUUGGGAAAGUAUUAUGUUACGCCGUUCGGAUCUGCACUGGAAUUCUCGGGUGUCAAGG | -0.766

Other studies, line by line
Molecule | target | test | test system | conditions | scale | quantity | value
PhoQ, residues 284 288 289 292 302 303 SQSLSM | PhoP, residues 12 14 15 18 19 IQFRS (Escherichia coli, UniProt P23836) | Sort-seq, item: YFP reporter | E. coli | PhoQ-PhoP variant library, with: 10 µM Mg2+ | reference: high Mg2+ state, higher = stronger signaling | fold induction | 16.8

A few entries again (series 1):
Sequence | fitted relative affinity
TCAGCATACCATATCAGACTGTGCTAG | 0.568 z-score
TTAGATCTCAGTATTGATTAGTGCTAG | 0.031 z-score
TCAGATATAAATGTAACACTGTGCTAG | -0.182 z-score
TTAGGTACCCTTATCCTTTAGTGCTAG | 0.792 z-score
TTAGATTTCACTTTCGATTAGTGCTAG | 10.9 z-score
GACGGTTTCTTTATCCTGACGTGCTAG | 2.26 z-score
